Measured values pooled from the literature.
Protocols differ between the studies behind these lines. Several values in a cell are separate wells, animals, samples, runs or records. ± marks the error that the study gave.
HLA class I histocompatibility antigen, A alpha chain allele A*24:02: HLA class I histocompatibility antigen, A alpha chain, allele A*24:02 (Homo sapiens, UniProt P04439)
Sequence of UniProt P63096 (whole entry, looked up): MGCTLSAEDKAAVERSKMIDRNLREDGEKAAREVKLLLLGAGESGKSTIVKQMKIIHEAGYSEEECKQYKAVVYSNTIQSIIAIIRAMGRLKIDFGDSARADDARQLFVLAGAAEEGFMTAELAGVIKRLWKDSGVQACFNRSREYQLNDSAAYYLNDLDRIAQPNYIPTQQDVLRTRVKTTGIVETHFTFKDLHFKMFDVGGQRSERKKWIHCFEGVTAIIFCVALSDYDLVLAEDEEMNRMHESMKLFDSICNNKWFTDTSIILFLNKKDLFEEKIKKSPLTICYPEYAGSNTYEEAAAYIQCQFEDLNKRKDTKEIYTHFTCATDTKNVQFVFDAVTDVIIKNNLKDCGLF
Sequence of UniProt P35372 (whole entry, looked up): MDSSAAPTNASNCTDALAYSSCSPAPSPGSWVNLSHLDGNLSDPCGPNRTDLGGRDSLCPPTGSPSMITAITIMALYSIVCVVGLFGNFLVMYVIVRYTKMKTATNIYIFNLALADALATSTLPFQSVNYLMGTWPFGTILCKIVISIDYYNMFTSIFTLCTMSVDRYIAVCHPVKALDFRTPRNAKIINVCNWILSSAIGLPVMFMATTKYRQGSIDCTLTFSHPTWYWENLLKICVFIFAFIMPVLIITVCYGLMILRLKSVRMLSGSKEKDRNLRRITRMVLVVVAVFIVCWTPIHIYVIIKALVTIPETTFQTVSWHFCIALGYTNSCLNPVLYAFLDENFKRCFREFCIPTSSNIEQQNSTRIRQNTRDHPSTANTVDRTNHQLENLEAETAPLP
Sequence of UniProt Q9P0L9 (whole entry, unmodified, looked up): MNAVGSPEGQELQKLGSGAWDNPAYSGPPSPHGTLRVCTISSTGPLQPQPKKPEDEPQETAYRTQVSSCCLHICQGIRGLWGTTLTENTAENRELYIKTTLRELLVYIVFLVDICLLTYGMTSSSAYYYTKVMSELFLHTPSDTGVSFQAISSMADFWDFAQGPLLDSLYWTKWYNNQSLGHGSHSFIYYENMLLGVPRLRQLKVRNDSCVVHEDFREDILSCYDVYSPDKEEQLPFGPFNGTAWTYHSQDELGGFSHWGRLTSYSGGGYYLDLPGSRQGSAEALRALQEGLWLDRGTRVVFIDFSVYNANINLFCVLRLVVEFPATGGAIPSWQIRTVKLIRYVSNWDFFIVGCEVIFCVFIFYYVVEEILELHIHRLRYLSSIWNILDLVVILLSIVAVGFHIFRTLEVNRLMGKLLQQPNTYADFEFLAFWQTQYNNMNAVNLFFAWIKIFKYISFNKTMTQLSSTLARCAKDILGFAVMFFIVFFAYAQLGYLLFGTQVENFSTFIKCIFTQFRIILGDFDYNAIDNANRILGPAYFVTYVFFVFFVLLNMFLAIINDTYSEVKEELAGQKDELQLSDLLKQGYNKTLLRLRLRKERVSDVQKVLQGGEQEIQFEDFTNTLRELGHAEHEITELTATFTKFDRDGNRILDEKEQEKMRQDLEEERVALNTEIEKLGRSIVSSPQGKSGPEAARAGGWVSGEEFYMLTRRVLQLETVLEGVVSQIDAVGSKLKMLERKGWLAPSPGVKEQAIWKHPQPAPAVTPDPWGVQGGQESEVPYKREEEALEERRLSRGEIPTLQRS
Sequence of UniProt P41595 (whole entry, looked up): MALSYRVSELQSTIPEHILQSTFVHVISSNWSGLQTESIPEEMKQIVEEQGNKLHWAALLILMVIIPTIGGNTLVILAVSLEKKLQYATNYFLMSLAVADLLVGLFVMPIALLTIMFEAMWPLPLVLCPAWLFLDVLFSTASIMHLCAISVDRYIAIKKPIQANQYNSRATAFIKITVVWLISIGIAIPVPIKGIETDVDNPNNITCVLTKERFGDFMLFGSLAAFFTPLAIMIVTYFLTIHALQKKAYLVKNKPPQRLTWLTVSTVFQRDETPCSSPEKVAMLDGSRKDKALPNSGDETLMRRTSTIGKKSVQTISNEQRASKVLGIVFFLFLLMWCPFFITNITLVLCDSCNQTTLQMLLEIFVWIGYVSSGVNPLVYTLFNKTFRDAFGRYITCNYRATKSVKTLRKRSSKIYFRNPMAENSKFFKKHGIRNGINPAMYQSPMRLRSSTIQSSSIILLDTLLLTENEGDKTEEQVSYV
Sequence of UniProt P08684 (whole entry, looked up): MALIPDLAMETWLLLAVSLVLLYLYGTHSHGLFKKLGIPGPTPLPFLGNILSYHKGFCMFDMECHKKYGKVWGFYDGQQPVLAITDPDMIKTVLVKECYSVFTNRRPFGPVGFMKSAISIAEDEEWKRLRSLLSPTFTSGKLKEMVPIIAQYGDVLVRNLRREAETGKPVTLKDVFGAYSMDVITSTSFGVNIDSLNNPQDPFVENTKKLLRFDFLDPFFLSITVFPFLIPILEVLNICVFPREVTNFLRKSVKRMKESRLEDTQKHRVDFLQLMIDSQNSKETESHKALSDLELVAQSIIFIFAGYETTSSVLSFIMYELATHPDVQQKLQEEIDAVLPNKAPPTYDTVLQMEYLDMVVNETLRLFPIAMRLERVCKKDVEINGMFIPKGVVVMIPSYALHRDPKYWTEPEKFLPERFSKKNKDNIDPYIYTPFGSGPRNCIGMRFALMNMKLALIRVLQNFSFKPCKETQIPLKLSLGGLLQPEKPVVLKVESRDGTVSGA
Sequence of UniProt P42866 (whole entry, looked up): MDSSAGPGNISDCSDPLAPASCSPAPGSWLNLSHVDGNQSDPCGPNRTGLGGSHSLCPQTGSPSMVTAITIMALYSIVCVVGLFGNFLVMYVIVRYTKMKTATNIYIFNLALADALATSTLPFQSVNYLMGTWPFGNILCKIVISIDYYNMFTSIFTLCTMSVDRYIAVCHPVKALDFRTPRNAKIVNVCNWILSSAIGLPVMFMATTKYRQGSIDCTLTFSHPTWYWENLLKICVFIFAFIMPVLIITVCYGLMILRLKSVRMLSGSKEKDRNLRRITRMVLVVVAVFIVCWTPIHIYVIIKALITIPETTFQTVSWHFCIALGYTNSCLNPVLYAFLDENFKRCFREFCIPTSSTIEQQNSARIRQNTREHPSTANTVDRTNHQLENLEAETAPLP

For `CC[C@H](C)[C@H](NC(=O)[C@@H](N)CCSC)C(=O)N[C@@H](Cc1ccccc1)C(=O)N[C@@H](CC(=O)O)C(=O)N[C@@H](CCCCN)C(=O)N1CCC[C@H]1C(=O)N[C@H](C(=O)N[C@@H](Cc1ccc(O)cc1)C(=O)N[C@@H](Cc1ccccc1)C(=O)O)C(C)C`, the IC50 was 1310 nM (HLA class I histocompatibility antigen, A alpha chain allele A*24:02; binding).
`CCCCOc1cc(C(=O)NCCN(CC)CC)c2ccccc2n1` has an IC50 of 10500 nM (PKD2L1 (Homo sapiens, UniProt Q9P0L9, F549L); ion current, inhibitor; F549L).
`O=C(C1CCCCC1)N1CCN(S(=O)(=O)c2cccc3cnccc23)CC1` gave an IC50 of 1300 nM (Cytochrome P450 3A4 (CYP3A4, Homo sapiens, UniProt P08684); enzyme activity, inhibitor; human liver microsomes; with: midazolam).
`CC(C)C[C@H](NC(=O)[C@H](CCC(N)=O)NC(=O)[C@H](CCCNC(=N)N)NC(=O)[C@H](CO)NC(=O)[C@H](Cc1ccc(O)cc1)NC(=O)[C@H](CC(C)C)NC(=O)[C@@H](N)CCCNC(=N)N)C(=O)N[C@@H](Cc1c[nH]cn1)C(=O)N[C@@H](Cc1ccccc1)C(=O)O` gave an IC50 of 299 nM (HLA class I histocompatibility antigen, A alpha chain allele A*24:02; binding).
The IC50 of `COc1ccc2cc1Oc1ccc(cc1)C[C@H]1c3cc(c(OC)cc3CCN1C)Oc1c(OC)c(OC)cc3c1[C@H](C2)N(C)CC3` is reported as 2100 nM (PKD2L1 (Homo sapiens, UniProt Q9P0L9, F514A); ion current).
The EC50 of `CNC(C)Cc1ccc2c(c1)OCO2` (stereo not shown) is reported as 598 nM (5-hydroxytryptamine receptor 2B (HTR2B, Homo sapiens, UniProt P41595); agonist).
`Nc1nc2c(ncn2[C@@H]2O[C@H](COP(=O)(O)OP(O)(O)=S)[C@@H](O)[C@H]2O)c(=O)[nH]1` gave an IC50 of 37 nM and 51.4 nM and 41.2 nM (OPRM1/GNAI1 (Homo sapiens, UniProt P35372+P63096); MOR-Gi coupling; HEK293F; ratio 1:7).
For `CSCC[C@H](NC(=O)[C@H](CCC(N)=O)NC(=O)[C@@H](N)CCCCN)C(=O)NCC(=O)N[C@@H](Cc1c[nH]cn1)C(=O)N[C@@H](CC(C)C)C(=O)N[C@@H](CC(C)C)C(=O)N[C@H](C(=O)N[C@@H](Cc1ccccc1)C(=O)O)[C@@H](C)O`, the IC50 was 6850 nM (HLA class I histocompatibility antigen, A alpha chain, allele A*02:01 (Homo sapiens, UniProt P04439); binding).
`C=CCN1CC[C@]23c4c5ccc(O)c4OC2C(NC(=O)c2cccc(I)c2)CC[C@@]3(O)[C@H]1C5` (stereo partly shown) gave an EC50 of 1.4 ± 0.3 nM (Mu-type opioid receptor (Oprm1, Mus musculus, UniProt P42866)).
`COc1cc(Nc2ncc(F)c(Nc3ccc4c(n3)NC(=O)C(C)(C)O4)n2)cc(OC)c1OC` gave an IC50 of over 10000 nM (phosphodiesterase 4; enzyme activity, inhibitor).

Excerpt of the above:
The IC50 of `COc1ccc2cc1Oc1ccc(cc1)C[C@H]1c3cc(c(OC)cc3CCN1C)Oc1c(OC)c(OC)cc3c1[C@H](C2)N(C)CC3` is reported as 2100 nM (PKD2L1 (Homo sapiens, UniProt Q9P0L9, F514A); ion current).
